# Experimental data of several laboratories.
# Every numbered part comes from another study and shows a few of its results, in no order. Changes are numbered by the printed parent chain.

# Block 1
# Target: Interferon regulatory factor 3, full length, phosphomimetic (IRF3, Homo sapiens, UniProt Q14653, residues 1-427, S386D/S396D/S398D/S402D/T404D/S405D)
# Method: protein-binding microarray
# Form: double-stranded DNA, one strand shown
# Medium: in vitro
# Concentration: 2540 nM top
# Notes: 60-bp whole probe
# Together with: salmon DNA 0.4 mg/ml
# Relative to: random background probes
# Reading: higher = stronger binding
# Constant ends, left off below: GCCTAGCAC … GTCTTGATTCGCTTGACGCTGCTG
# Construct (chain): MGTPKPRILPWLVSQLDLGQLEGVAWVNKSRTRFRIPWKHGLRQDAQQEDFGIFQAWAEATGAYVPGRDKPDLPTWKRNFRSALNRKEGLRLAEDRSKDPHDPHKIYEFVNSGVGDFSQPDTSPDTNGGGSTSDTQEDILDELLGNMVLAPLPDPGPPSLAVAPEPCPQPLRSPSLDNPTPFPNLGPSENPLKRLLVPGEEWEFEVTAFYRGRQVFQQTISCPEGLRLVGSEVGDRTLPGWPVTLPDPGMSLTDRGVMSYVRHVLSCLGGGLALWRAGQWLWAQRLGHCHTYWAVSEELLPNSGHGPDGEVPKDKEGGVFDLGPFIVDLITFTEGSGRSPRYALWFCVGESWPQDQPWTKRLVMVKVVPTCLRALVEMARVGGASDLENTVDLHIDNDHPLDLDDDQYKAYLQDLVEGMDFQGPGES
Sequence,fitted relative affinity [z-score]
GACGAGCTGAGTATCGAGACGTGCTAG,-0.142
GACGGCTTCGGGACTGGGGACGTGCTA,-0.816
TTAGATCTCAGCCTGGATTAGTGCTAG,-0.332
GACGGACTGCTCTTCCTGACGTGCTAG,-0.388
ATAGATTCCAGTTTCGATTAGTGCTAG,4.94
TCATCATTCCTGATCTCACTGTGCTAG,0.756
ACCCATTGAGATTTTCATTATGTGCTA,0.703
TTAGGTTTCCTTATCCTTCAGTGCTAG,7.97
GGCATTTTCGGGTAGATGGCCGTGCTA,1.14
TTTTCTCTTATTCTAACAGCGTGCTAG,3.02
GACGATCTCAGTATGGAGACGTGCTAG,0.481
GACGATTTAGGGACTGGAGACGTGCTA,0.153
GACGGTATCCGTTTCGGGACGTGCTAG,6.84
TTAGGTTTCGGTTTCGGTTTGTGCTAG,13.5

# Block 2
# Target: RNA binding protein fox-1 homolog 2, RRM domain, GST-SBP tag (RBFOX2, Homo sapiens, UniProt O43251-10, residues 100-194)
# Method: RNA Bind-n-Seq
# Form: RNA
# Medium: in vitro
# Concentration: 365 nM
# Notes: natural RNA segment, single round, ends assumed
# Relative to: no-protein control
# Reading: higher = stronger binding
# Residues (chain): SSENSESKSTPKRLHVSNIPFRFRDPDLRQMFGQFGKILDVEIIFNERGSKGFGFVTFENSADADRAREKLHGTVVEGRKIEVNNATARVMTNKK
Sequence,RBNS enrichment (R)
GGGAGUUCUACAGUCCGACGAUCGUGAUCAGGGAGUGUGUCCAACGUAGCCCCCUGGCCUGUGCAAGCCCUGACUCCCUCAUGGUGCCUCGGAGAGUGGGGAGCAUAUUGGGCUGGGGUAAGCACUAGACCCAUGGAAUUCUCGGGUGCCAA,0.374
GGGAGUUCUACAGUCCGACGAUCGCCCUGGGUGCCCACUGACACCGACCCCCAGGCAGAGGCCUUUGUCUUCAGCACUCCUGAGAAGUUGGCUCUUUACCCCUUCUCCUCUGCUGCCCCUCCUUCCUGCUGGUUGGAAUUCUCGGGUGCCAA,0.349
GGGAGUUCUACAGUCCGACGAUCGUUUUAUUUAACCAUGGGGUAGGCUGGGGUGAUGUUUCAGUUUUCAAGGGACAGAAGCAAGACAAAAUGCAUGGGCCCUUGUGUUCCUAAUGGUCUUAACUGAAGUCCAAUGGAAUUCUCGGGUGCCAA,1.8
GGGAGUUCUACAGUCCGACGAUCUUCAUAAUAUACAGGGGCAGCUGCCAAAUUGAUGUAUUAUAAUAUUGUGGUUUCUGUUUCUUGAGAAAAAUUUUUUGUUAUUUUUACAUCUAACAGAGGAAAAAAAAUUUUGGAAUUCUCGGGUGCCAA,0.7
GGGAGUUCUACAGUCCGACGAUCGGACCCAGAUGAUGGCUUCUCAGGGCAAGUCAUAAGUUAUCAGGUCCACUUGUCUGGAAGAAUAACAAGAAAGCUGCUGCUUUCGAGAUCACCCGCCAGAGGCGGGGCACUGGAAUUCUCGGGUGCCAA,0.29
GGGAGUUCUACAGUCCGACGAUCCCAGCAUGCACUUCAGGAUCAUUAGUGUAUUUAGAAUCUGUAAAAAUAAUAAAUAUGUUUGAAACAAUUUCUUGUUGUUUUGUCUAUGUGUGGACGCCUGACUUGCCAGCUGGAAUUCUCGGGUGCCAA,11.9
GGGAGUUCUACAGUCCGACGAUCAGCUGGAGUUGGAUGACGAACUCAAGAGUGUGGAGAACCAGGUGCGCUACGCCCAGAUCCAGCUGGACAAGCUCAAGAAAACCAAUGUCUUCAAUGCCACCUUCCACAUCUGGAAUUCUCGGGUGCCAA,0.272
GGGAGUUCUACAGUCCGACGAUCUCAUAAAGAUUUUCAAUCAUUCAAUUUCAUUUAUCAACUGAAAUUUUGUUUAGUAUGUGAAUUUUUUUUUGAAAUGUAUAGUAAAUAAGAUGUUGCACUGGUGGCAAUUCUGGAAUUCUCGGGUGCCAA,0.691

# Block 3
# Target: CCNA1, cyclin fold, Cln2 fusion (human)
# Method: yeast growth competition, sequencing
# Medium: yeast
# Notes: weak parent motif
# Relative to: not given
# Reading: higher = stronger binding
# Parent: SLBP docking peptide (human); ARYKRKLLINDFG
Variant,normalised enrichment score
ADYKRKLLINDFG [R2D],0.52
ARYGRKLLINDFG [K4G],0.225
ARYKRKLLINDWG [F12W],0.166
ARYKNKLLINDFG [R5N],0.224
ARYKRKLLIDDFG [N10D],0.291
ARYKRILLINDFG [K6I],0.213
ARYCRKLLINDFG [K4C],0.168
ARSKRKLLINDFG [Y3S],0.348
ARYKRKLLINYFG [D11Y],0.367
ARYKRELLINDFG [K6E],0.252
ARYKRYLLINDFG [K6Y],0.122
ARYKRKLMINDFG [L8M],0.487
ARYKRKLLKNDFG [I9K],0.351
HRYKRKLLINDFG [A1H],0.316
ARYKRKLLINDRG [F12R],0.615
ARYKRKFLINDFG [L7F],0.406
ARYKRKLLINDFH [G13H],0.351
ARYKRKLLIEDFG [N10E],0.772
AMYKRKLLINDFG [R2M],0.11
ARYKRKALINDFG [L7A],0.088
ARYKRTLLINDFG [K6T],0.373
ARYKRKLLINDFL [G13L],-0.00861
ARYKRKLKINDFG [L8K],-0.322
ARYKCKLLINDFG [R5C],0.723
ALYKRKLLINDFG [R2L],0.263

# Block 4
# Target: Ras GTPase-activating protein-binding protein 1, C-terminal RGG region (G3BP1, Homo sapiens, UniProt Q13283)
# Chain of UniProt Q13283 (whole entry, looked up): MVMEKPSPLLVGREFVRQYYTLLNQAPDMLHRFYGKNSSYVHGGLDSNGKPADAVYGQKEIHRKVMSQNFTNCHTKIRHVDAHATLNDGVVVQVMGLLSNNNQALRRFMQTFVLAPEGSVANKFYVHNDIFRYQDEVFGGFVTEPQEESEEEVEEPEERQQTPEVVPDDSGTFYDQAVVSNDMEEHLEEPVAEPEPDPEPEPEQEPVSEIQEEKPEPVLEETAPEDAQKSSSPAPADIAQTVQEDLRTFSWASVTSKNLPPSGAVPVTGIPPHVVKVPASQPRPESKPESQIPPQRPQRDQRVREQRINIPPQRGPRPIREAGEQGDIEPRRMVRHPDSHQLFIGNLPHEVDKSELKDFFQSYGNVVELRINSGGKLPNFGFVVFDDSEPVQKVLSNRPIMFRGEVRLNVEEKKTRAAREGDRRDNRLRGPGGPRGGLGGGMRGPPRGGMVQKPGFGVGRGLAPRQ
# Method: RNA Bind-n-Seq
# Form: RNA
# Medium: in vitro
# Concentration: 1 µM
# Notes: whole 134-nt RNA, ends assumed
# Together with: 150 mM KCl
# Relative to: input library
# Reading: higher = stronger binding
Sequence,log2 enrichment
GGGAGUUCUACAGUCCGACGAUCUGGGAGGUGGAUUUUGUUUAUUUUUUUAGCUCAUUUCCAGGGGUGGGAAUUUUUUUUUAAUACGUGUCAUGAAUAAAGUUGUUUUUGAAAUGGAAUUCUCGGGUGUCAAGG,3.3
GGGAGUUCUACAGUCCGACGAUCUGCCCAGCUCAUGCUGGACCACCUGAAGAACAGUGCUCCCAGCAAGCGAGAGAUUGCCCAGCUCAAGAACCAGGUAUCCACAGAGAGCACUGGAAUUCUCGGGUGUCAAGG,-1.72
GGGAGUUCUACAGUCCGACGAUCUGUGCUACACAUCGUAUGUACCGAAUCGGGGAAAAAAAGGGGUUUUUGGGGAAAAAAAGGGGAAAGUAUUAUGUUACGCCGUUCGGAUCUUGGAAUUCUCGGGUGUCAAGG,0.455
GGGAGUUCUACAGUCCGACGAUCCCUGUGCUACACAUCGUAUGUACCGAAUCGGGUUUUUUUGGUUUUUUUGGUUUUUUUGGGAAAGUAUUAUGUUACGCCGUUCGGAUCUGCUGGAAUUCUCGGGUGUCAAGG,-1.7
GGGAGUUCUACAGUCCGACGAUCCAAGUCCUGUGCUACACAUCGUAUGUACCGAAUCGGGGUGGGGAAAGGGGAGGGGAAAGUAUUAUGUUACGCCGUUCGGAUCUGCACUUCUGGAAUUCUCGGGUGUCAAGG,3.09
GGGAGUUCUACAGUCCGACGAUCCCUCAAGUCCUGUGCUACACAUCGUAUGUACCGAAUCGGGUGGGUGGUGGGGAAAGUAUUAUGUUACGCCGUUCGGAUCUGCACUUCCAGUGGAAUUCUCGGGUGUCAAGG,1.04
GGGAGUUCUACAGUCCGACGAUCGUCCUGUGCUACACAUCGUAUGUACCGAAUCGGGGAAAAAAAGGGGUGGGGAAAGGGGAAAGUAUUAUGUUACGCCGUUCGGAUCUGCACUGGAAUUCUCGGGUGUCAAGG,1.93
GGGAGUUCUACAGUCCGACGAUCUCCUGUGCUACACAUCGUAUGUACCGAAUCGGGGAAAAAAAGGGGAGGGGAAAAAGGGGAAAGUAUUAUGUUACGCCGUUCGGAUCUGCAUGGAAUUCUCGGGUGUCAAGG,1.41
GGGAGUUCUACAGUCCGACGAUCUCCUGUGCUACACAUCGUAUGUACCGAAUCAAAUUUUUUUAAACCCCCCCAAAUUUAAAAAAGUAUUAUGUUACGCCGUUCGGAUCUGCAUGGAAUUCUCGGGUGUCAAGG,-0.294

# Repeated from above (block 3):
Variant,normalised enrichment score
ADYKRKLLINDFG [R2D],0.52
ARYGRKLLINDFG [K4G],0.225
ARYKRKLLINDWG [F12W],0.166
ARYKNKLLINDFG [R5N],0.224
ARYKRKLLIDDFG [N10D],0.291
ARYKRILLINDFG [K6I],0.213
ARYCRKLLINDFG [K4C],0.168
ARSKRKLLINDFG [Y3S],0.348
